Measured values gathered from unrelated publications.
Protocols differ between the studies behind these lines.
Technique: steady-state kinetics
B1: UGT1A9 (Homo sapiens, UniProt O60656); chain GKLLVVPMDGSHWFTMRSVVEKLILRGHEVVVVMPEVSWQLGRSLNCTVKTYSTSYTLEDLDREFKAFAHAQWKAQVRSIYSLLMGSYNDIFDLFFSNCRSLFKDKKLVEYLKESSFDAVFLDPFDNCGLIVAKYFSLPSVVFARGILCHYLEEGAQCPAPLSYVPRILLGFSDAMTFKERVRNHIMHLEEHLLCHRFFKNALEIASEILQTPVTEYDLYSHTSIWLLRTDFVLDYPKPVMPNMIFIGGINCHQGKPLPMEFEAYINASGEHGIVVFSLGSMVSEIPEKKAMAIADALGKIPQTVLWRYTGTRPSNLANNTILVKWLPQNDLLGHPMTRAFITHAGSHGVYESICNGVPMVMMPLFGDQMDNAKRMETKGAGVTLNVLEMTSEDLENALKAVINDKSYKENIMRLSSLHKDRPVEPLDLAVFWVEFVMRHKGAPHLRPAAHDLTWYQYHSLDVIGFLLAVVLTVAFITFKCCAYGYRKCLGKKGRVKKAHKSKTH
B2: speck S221A (Drosophila melanogaster, UniProt Q94521); chain MEDALTVSGKPAACPVDQDCPYTIELIQPEDGEAVIAMLKTFFFKDEPLNTFLDLGECKELEKYSLKPLPDNCSYKAVNKKGEIIGVFLNGLMRRPSPDDVPEKAADSCEHPKFKKILSLMDHVEEQFNIFDVYPDEELILDGKILSVDTNYRGLGIAGRLTERAYEYMRENGINVYHVLCSSHYAARVMEKLGFHEVFRMQFADYKPQGEVVFKPAAPHVGIQVMAKEVGPAKAAQTKL
B3: hflX K210A/N207A (Escherichia coli, UniProt P25519); chain MFDRYDAGEQAVLVHIYFTQDKDMEDLQEFESLVSSAGVEALQVITGSRKAPHPKYFVGEGKAVEIAEAVKATGASVVLFDHALSPAQERNLERLCECRVIDRTGLILDIFAQRARTHEGKLQVELAQLRHLATRLVRGWTHLERQKGGIGLRGPGETQLETDRRLLRNRIVQIQSRLERVEKQREQGRQSRIKADVPTVSLVGYTAAGASTLFNRITEARVYAADQLFATLDPTLRRIDVADVGETVLADTVGFIRHLPHDLVAAFKATLQETRQATLLLHVIDAADVRVQENIEAVNTVLEEIDAHEIPTLLVMNKIDMLEDFEPRIDRDEENKPNRVWLSAQTGAGIPQLFQALTERLSGEVAQHTLRLPPQEGRLRSRFYQLQAIEKEWMEEDGSVSLQVRMPIVDWRRLCKQEPALIDYLI
B4: BshA S17A (Bacillus subtilis, UniProt P42982); chain MRKLKIGITCYPSVGGAGIIATELGKQLAEKGHEIHFITSSIPFRLNTYHPNIHFHEVEVNQYAVFKYPPYDLTLASKIAEVAERENLDIIHAHYALPHAVCAYLAKQMLKRNIGIVTTLHGTDITVLGYDPSLKDLIRFAIESSDRVTAVSSALAAETYDLIKPEKKIETIYNFIDERVYLKKNTAAIKEKHGILPDEKVVIHVSNFRKVKRVQDVIRVFRNIAGKTKAKLLLVGDGPEKSTACELIRKYGLEDQVLMLGNQDRVEDLYSISDLKLLLSEKESFGLVLLEAMACGVPCIGTNIGGIPEVIKNNVSGFLVDVGDVTAATARAMSILEDEQLSNRFTKAAIEMLENEFSSKKIVSQYEQIYADLAEPE
B5: LYPLA1 (Homo sapiens, UniProt O75608); chain MCGNNMSTPLPAIVPAARKATAAVIFLHGLGDTGHGWAEAFAGIRSSHIKYICPHAPVRPVTLNMNVAMPSWFDIIGLSPDSQEDESGIKQAAENIKALIDQEVKNGIPSNRIILGGFSQGGALSLYTALTTQQKLAGVTALSCWLPLRASFPQGPIGGANRDISILQCHGDCDPLVPLMFGSLTVEKLKTLVNPANVTFKTYEGMMHSSCQQEMMDVKQFIDKLLPPID
B6: asnB E349Q (Escherichia coli, UniProt P22106); chain CSIFGVFDIKTDAVELRKKALELSRLMRHRGPDWSGIYASDNAILAHERLSIVDVNAGAQPLYNQQKTHVLAVNGEIYNHQALRAEYGDRYQFQTGSDCEVILALYQEKGPEFLDDLQGMFAFALYDSEKDAYLIGRDHLGIIPLYMGYDEHGQLYVASEMKALVPVCRTIKEFPAGSYLWSQDGEIRSYYHRDWFDYDAVKDNVTDKNELRQALEDSVKSHLMSDVPYGVLLSGGLDSSIISAITKKYAARRVEDQERSEAWWPQLHSFAVGLPGSPDLKAAQEVANHLGTVHHEIHFTVQEGLDAIRDVIYHIETYDVTTIRASTPMYLMSRKIKAMGIKMVLSGQGSDEVFGGYLYFHKAPNAKELHEETVRKLLALHMYDCARANKAMSAWGVEARVPFLDKKFLDVAMRINPQDKMCGNGKMEKHILRECFEAYLPASVAWRQKEQFSDGVGYSWIDTLKEVAAQQVSDQQLETARFRFPYNTPTSKEAYLYREIFEELFPLPSAAECVPGGPSVACSSAKAIEWDEAFKKMDDPSGRAVGVHQSAYK
B7: ycjQ (Escherichia coli, UniProt P76043); chain MKKLVATAPRVAALVEYEDRAILANEVKIRVRFGAPKHGTEVVDFRAASPFIDEDFNGEWQMFTPRPADAPRGIEFGKFQLGNMVVGDIIECGSDVTDYAVGDSVCGYGPLSETVIINAVNNYKLRKMPQGSSWKNAVCYDPAQFAMSGVRDANVRVGDFVVVVGLGAIGQIAIQLAKRAGASVVIGVDPIAHRCDIARRHGADFCLNPIGTDVGKEIKTLTGKQGADVIIETSGYADALQSALRGLAYGGTISYVAFAKPFAEGFNLGREAHFNNAKIVFSRACSEPNPDYPRWSRKRIEETCWELLMNGYLNCEDLIDPVVTFANSPESYMQYVDQHPEQSIKMGVTF
B8: IYD (Homo sapiens, UniProt Q6PHW0); chain MGEPRTRAEARPWVDEDLKDSSDLHQAEEDADEWQESEENVEHIPFSHNHYPEKEMVKRSQEFYELLNKRRSVRFISNEQVPMEVIDNVIRTAGTAPSGAHTEPWTFVVVKDPDVKHKIRKIIEEEEEINYMKRMGHRWVTDLKKLRTNWIKEYLDTAPILILIFKQVHGFAANGKKKVHYYNEISVSIACGILLAALQNAGLVTVTTTPLNCGPRLRVLLGRPAHEKLLMLLPVGYPSKEATVPDLKRKPLDQIMVTV
UniProt P10635, sequence (whole entry, looked up): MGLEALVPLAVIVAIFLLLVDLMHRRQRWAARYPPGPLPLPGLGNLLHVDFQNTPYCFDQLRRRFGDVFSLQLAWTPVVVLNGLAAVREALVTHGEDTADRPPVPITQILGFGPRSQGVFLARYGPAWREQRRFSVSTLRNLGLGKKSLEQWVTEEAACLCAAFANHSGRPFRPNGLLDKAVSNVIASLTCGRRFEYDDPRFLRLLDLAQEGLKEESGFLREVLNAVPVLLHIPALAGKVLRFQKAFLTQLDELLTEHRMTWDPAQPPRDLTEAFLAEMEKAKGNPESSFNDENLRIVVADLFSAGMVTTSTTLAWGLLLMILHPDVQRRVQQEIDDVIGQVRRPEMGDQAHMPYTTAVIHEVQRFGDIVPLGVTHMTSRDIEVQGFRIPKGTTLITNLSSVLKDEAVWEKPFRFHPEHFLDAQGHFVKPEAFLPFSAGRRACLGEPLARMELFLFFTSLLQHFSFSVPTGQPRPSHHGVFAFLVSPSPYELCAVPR
UniProt Q9Y274, sequence (whole entry, looked up): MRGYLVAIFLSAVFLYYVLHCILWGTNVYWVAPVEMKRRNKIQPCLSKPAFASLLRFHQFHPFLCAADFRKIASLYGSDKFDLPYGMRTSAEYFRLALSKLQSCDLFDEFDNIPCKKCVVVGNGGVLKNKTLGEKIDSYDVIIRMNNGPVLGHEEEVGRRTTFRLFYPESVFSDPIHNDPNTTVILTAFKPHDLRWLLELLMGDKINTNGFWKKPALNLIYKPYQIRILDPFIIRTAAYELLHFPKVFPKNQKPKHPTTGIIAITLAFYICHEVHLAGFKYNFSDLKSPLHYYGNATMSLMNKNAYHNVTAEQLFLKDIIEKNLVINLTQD

Substance	substrate	pH	temperature	notes	added	Km
B1 (UGT1A9)	Oc1ccc([C@H]2COc3cc(O)ccc3C2)cc1	pH 7.4	37 °C			213 µM
enzyme (Trichomonas vaginalis, UniProt A2DJ40)	NC(=O)C1=CN([C@@H]2O[C@H](COP(=O)(O)OP(=O)(O)OC[C@H]3O[C@@H](n4cnc5c(N)ncnc54)[C@H](OP(=O)(O)O)[C@@H]3O)[C@@H](O)[C@H]2O)C=CC1	pH 6.25	37 °C	cofactor varied		34.2 µM
B2 (speck S221A)	CC(=O)SCCNC(=O)CCNC(=O)[C@H](O)C(C)(C)COP(=O)(O)OP(=O)(O)OC[C@H]1O[C@@H](n2cnc3c(N)ncnc32)[C@H](O)[C@@H]1OP(=O)(O)O	pH 7.2	30 °C			390 µM
B3 (hflX K210A/N207A)	Nc1nc2c(ncn2[C@@H]2O[C@H](COP(=O)(O)OP(=O)(O)OP(=O)(O)O)[C@@H](O)[C@H]2O)c(=O)[nH]1	pH 8	37 °C		MgCl2 5 mM, NaCl 200 mM	2130 µM
B4 (BshA S17A)	O=C(O)C[C@H](O)C(=O)O	pH 7.5	21 °C		UDP-GlcNAc 0–4 mM	10000 µM
B5 (LYPLA1)	CN(C)c1ccc(/N=N/c2ccc(C(=O)NCCCn3cc(CCCCCCCCCCCCCCCC(=O)SC[C@H](NC(=O)c4cc5ccc(O)cc5oc4=O)C(=O)N4CCOCC4)nn3)cc2)cc1	pH 7.4	37 °C			14.5 µM
B6 (asnB E349Q)	NC(=O)CC[C@H](N)C(=O)O	pH 8	37 °C	100 mM NaCl, glutaminase site	MgCl2; no ATP	9000 µM
B7 (ycjQ)	CO[C@H]1O[C@H](CO)[C@H](O)C(=O)[C@H]1O	pH 7	30 °C		NADH 0.3 mM, MnCl2 0.5 mM	9400 µM
ST3GAL6 (Homo sapiens, UniProt Q9Y274)	CC(=O)N[C@H]1[C@H](O[C@H]2[C@@H](O)[C@@H](CO)O[C@@H](Oc3ccc([N+](=O)[O-])cc3)[C@@H]2O)O[C@H](CO)[C@@H](O[C@@H]2O[C@H](CO)[C@H](O)[C@H](O)[C@H]2O)[C@@H]1O	pH 6			CMP-Neu5Ac	210 µM
B8 (IYD)	COc1cc(C[C@H](N)C(=O)O)cc(I)c1O	pH 7.4	25 °C		sodium dithionite 0.5%	77 µM
CYP2D6 (Homo sapiens, UniProt P10635)	CCN(CC)CCNC(=O)c1ccc(N)cc1	pH 7.4	37 °C			140 µM

Some of these lines once more:
Substance	substrate	pH	temperature	notes	added	Km
B5 (LYPLA1)	CN(C)c1ccc(/N=N/c2ccc(C(=O)NCCCn3cc(CCCCCCCCCCCCCCCC(=O)SC[C@H](NC(=O)c4cc5ccc(O)cc5oc4=O)C(=O)N4CCOCC4)nn3)cc2)cc1	pH 7.4	37 °C			14.5 µM
B8 (IYD)	COc1cc(C[C@H](N)C(=O)O)cc(I)c1O	pH 7.4	25 °C		sodium dithionite 0.5%	77 µM
